# Experimental data of several laboratories.
# Lines come from different studies, so protocols differ.
# Method: steady-state kinetics
# B1: Mgst1 unactivated (Rattus norvegicus, UniProt P08011); chain ADLKQLMDNEVLMAFTSYATIILAKMMFLSSATAFQRLTNKVFANPEDCAGFGKGENAKKFLRTDEKVERVRRAHLNDLENIVPFLGIGLLYSLSGPDLSTALIHFRIFVGARIYHTIAYLTPLPQPNRGLAFFVGYGVTLSMAYRLLRSRLYL
# B2: ALDH4A1 (Homo sapiens, UniProt P30038); chain TGAGLRWKHTSSLKVANEPVLAFTQGSPERDALQKALKDLKGRMEAIPCVVGDEEVWTSDVQYQVSPFNHGHKVAKFCYADKSLLNKAIEAALAARKEWDLKPIADRAQIFLKAADMLSGPRRAEILAKTMVGQGKTVIQAEIDAAAELIDFFRFNAKYAVELEGQQPISVPPSTNSTVYRGLEGFVAAISPFNFTAIGGNLAGAPALMGNVVLWKPSDTAMLASYAVYRILREAGLPPNIIQFVPADGPLFGDTVTSSEHLCGINFTGSVPTFKHLWKQVAQNLDRFHTFPRLAGECGGKNFHFVHRSADVESVVSGTLRSAFEYGGQKCSACSRLYVPHSLWPQIKGRLLEEHSRIKVGDPAEDFGTFFSAVIDAKSFARIKKWLEHARSSPSLTILAGGKCDDSVGYFVEPCIVESKDPQEPIMKEEIFGPVLSVYVYPDDKYKETLQLVDSTTSYGLTGAVFSQDKDVVQEATKVLRNAAGNFYINDKSTGSIVGQQPFGGARASGTNDKPGGPHYILRWTSPQVIKETHKPLGDWSYAYMQ
# B3: enzyme (Bacillus pumilus, UniProt A8FFI9); chain EARSIAWSVDEFFKNREGTFVIQEVKEKSPWVYNKKRAKERFAPQSTFKVANALIGLQTGAVRDEYDIKYWDGVKREIDNWNRDHTLGSGMRDSVVWYYQAMARDIGEERMNHWVKAIHYGNKDISGGIDQFWLSSTLRISPIEQVRFLKQLYEETLPFDLKNMRTVKRMMVQEEEKHATLYGKTGSGSDIGWYVGFIKHEHKTYILATNIKGTGIEAKDITYRILKKYHLMEASV
# B4: ABCB10 (Homo sapiens, UniProt Q9NRK6); chain AGLPEARKLLGLAYPERRRLAAAVGFLTMSSVISMSAPFFLGKIIDVIYTNPTVDYSDNLTRLCLGLSAVFLCGAAANAIRVYLMQTSGQRIVNRLRTSLFSSILRQEVAFFDKTRTGELINRLSSDTALLGRSVTENLSDGLRAGAQASVGISMMFFVSPNLATFVLSVVPPVSIIAVIYGRYLRKLTKVTQDSLAQATQLAEERIGNVRTVRAFGKEMTEIEKYASKVDHVMQLARKEAFARAGFFGATGLSGNLIVLSVLYKGGLLMGSAHMTVGELSSFLMYAFWVGISIGGLSSFYSELMKGLGAGGRLWELLEREPKLPFNEGVILNEKSFQGALEFKNVHFAYPARPEVPIFQDFSLSIPSGSVTALVGPSGSGKSTVLSLLLRLYDPASGTISLDGHDIRQLNPVWLRSKIGTVSQEPILFSCSIAENIAYGADDPSSVTAEEIQRVAEVANAVAFIRNFPQGFNTVVGEKGVLLSGGQKQRIAIARALLKNPKILLLDEATSALDAENEYLVQEALDRLMDGRTVLVIAHRLSTIKNANMVAVLDQGKITEYGKHEELLSKPNGIYRKLMNKQSFISA
# B5: enzyme (Oryctolagus cuniculus, UniProt A0A5F9DQ59); chain MLEAPPPLWAAAALGLTLLGLMVFLCRRHWAMLRIGYNEFLLQPLRNLLMGDSKEQRILHHVRQHAQRGDPQSVLDAIDTYCSQKEWAMNVGDKKGAIMDSVIQEYRPSLVLELGAYCGYSAVRIARLLPPGGRLLTMEINPTYAAITQQMLDIAGLQDKVTVLLGASQDLIPQLKHKYDVDTLDMVFLDHWKDRYLPDTLLLEECGLLRKGSVLLADNVIVPGAPDFLAHVRGSSSFECTHYSSFLEYMPVVDGLEKAIYVGPGRPN
# B6: cyc1 F332A (Streptomyces coelicolor, UniProt Q9K499); chain MHAFPHGTTATPTAIAVPPSLRLPVIEAAFPRQLHPYWPKLQETTRTWLLEKRLMPADKVEEYADGLCYTDLMAGYYLGAPDEVLQAIADYSAWFFVWDDRHDRDIVHGRAGAWRRLRGLLHTALDSPGDHLHHEDTLVAGFADSVRRLYAFLPATWNARFARHFHTVIEAYDREFHNRTRGIVPGVEEYLELRRLTFAHWIWTDLLEPSSGCELPDAVRKHPAYRRAALLSQEFAAWYNDLCSLPKEIAGDEVHNLGISLITHHSLTLEEAIGEVRRRVEECITEFLAVERDALRFADELADGTVRGKELSGAVRANVGNMRNWFSSVYWAHHESGRYMVDSWDDRSTPPYVNNEAAGEK
# B7: GTPBP3 A162P (Homo sapiens, UniProt Q969Y2); chain TRRSSGAPAPGSGATIFALSSGQGRCGIAVIRTSGPASGHALRILTAPRDLPLARHASLRLLSDPRSGEPLDRALVLWFPGPQSFTGEDCVEFHVHGGPAVVSGVLQALGSVPGLRPAEAGEFTRRAFANGKLNLTEVEGLPDLIHAETEAQRRQALRQLDGELGHLCRGWAETLTKALAHVEAYIDFGEDDNLEEGVLEQADIEVRALQVALGAHLRDARRGQRLRSGVHVVVTGPPNAGKSSLVNLLSRKPVSIVSPEPGTTRDVLETPVDLAGFPVLLSDTAGLREGVGPVEQEGVRRARERLEQADLILAMLDASDLASPSSCNFLATVVASVGAQSPSDSSQRLLLVLNKSDLLSPEGPGPGPDLPPHLLLSCLTGEGLDGLLEALRKELAAVCGDPSTDPPLLTRARHQHHLQGCLDALGHYKQSKDLALAAEALRVARGHLTRLTGGGGTEEILDIIFQDFCVGK
# Sequence of UniProt Q88FY1 (whole entry, looked up): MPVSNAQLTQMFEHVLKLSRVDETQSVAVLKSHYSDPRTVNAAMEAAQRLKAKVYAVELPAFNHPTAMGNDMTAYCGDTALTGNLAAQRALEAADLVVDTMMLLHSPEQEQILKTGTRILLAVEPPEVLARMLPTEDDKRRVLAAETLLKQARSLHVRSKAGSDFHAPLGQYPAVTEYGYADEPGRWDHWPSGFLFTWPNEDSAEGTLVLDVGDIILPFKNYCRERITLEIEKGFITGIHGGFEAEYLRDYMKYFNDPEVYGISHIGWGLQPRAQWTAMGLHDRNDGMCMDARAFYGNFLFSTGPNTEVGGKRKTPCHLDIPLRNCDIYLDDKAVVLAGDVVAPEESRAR
# Sequence of UniProt P38361 (whole entry, looked up): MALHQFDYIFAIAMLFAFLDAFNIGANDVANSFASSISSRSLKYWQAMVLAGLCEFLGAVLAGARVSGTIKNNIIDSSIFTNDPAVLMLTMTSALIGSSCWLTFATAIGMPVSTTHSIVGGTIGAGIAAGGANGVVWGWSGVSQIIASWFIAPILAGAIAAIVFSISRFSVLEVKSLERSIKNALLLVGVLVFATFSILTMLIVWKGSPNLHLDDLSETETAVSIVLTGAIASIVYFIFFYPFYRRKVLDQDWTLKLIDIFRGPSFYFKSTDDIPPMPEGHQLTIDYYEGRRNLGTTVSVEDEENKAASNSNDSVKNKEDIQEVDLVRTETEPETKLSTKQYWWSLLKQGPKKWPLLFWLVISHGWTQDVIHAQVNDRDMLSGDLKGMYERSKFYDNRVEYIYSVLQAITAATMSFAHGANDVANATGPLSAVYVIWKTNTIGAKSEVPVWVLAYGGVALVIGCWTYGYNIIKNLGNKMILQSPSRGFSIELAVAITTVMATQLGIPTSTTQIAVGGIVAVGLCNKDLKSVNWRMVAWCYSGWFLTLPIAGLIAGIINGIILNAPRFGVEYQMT
# Sequence of UniProt Q04JB0 (whole entry, looked up): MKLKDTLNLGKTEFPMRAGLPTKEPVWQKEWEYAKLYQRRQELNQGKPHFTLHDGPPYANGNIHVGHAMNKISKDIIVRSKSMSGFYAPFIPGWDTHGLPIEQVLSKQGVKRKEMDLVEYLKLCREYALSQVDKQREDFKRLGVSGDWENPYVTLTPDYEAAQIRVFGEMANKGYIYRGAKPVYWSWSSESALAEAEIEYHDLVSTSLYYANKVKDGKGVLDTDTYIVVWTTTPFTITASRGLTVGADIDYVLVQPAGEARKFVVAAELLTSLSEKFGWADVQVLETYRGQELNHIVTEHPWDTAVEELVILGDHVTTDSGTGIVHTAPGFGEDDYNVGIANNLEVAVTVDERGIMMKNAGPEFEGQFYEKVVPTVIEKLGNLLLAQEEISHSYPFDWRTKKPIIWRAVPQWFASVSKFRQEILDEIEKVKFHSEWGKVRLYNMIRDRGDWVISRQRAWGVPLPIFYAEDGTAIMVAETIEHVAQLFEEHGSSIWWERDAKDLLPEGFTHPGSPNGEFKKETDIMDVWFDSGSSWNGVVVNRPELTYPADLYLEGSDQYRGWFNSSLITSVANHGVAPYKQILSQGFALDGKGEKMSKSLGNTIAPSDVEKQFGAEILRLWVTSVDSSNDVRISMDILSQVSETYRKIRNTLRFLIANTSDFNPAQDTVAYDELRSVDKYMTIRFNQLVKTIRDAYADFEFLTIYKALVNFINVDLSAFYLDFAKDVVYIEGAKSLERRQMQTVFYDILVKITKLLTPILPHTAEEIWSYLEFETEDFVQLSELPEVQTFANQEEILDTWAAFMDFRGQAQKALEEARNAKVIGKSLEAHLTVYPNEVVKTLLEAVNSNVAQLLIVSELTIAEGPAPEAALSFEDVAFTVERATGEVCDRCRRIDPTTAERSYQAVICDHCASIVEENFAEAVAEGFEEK
Molecule,substrate,matrix,pH,temperature,notes,with,Km [µM]
B1 (Mgst1 unactivated),CC(=O)c1ccc(Cl)c([N+](=O)[O-])c1,,pH 6.5,5 °C,"potassium phosphate 0.1 M, unactivated enzyme",GSH 5 mM,77
B2 (ALDH4A1),O=C(O)[C@@H]1CCC=N1,,pH 7,20 °C,value for L-P5C,NAD+,32
B3 (enzyme),CC1(C)S[C@@H]2[C@H](NC(=O)[C@H](C(=O)O)c3ccsc3)C(=O)N2[C@H]1C(=O)O,,pH 7,,,,34
"enzyme (Saccharomyces cerevisiae, UniProt P38361)",O=P(O)(O)O,,,25 °C,apparent,,64.1
"butyrylcholinesterase (Sus scrofa, UniProt A0A4X1VEU5)",CC(=O)SCC[N+](C)(C)C,,pH 8,22 °C,,,370
"nicX (Pseudomonas putida, UniProt Q88FY1)",Oc1ccc(O)nc1,,pH 7.5,20 °C,,O2; Fe2+ 0.025 mM,74
"protein (Cyanidioschyzon merolae, UniProt Q84Y91)",Nc1nc2c(ncn2[C@@H]2O[C@H](COP(=O)(O)OP(=O)(O)OP(=O)(O)O)[C@@H](O)[C@H]2O)c(=O)[nH]1,,pH 7.5,,"basal, without liposomes",,113
"ileS (Streptococcus pneumoniae, UniProt Q04JB0)",CC[C@H](C)[C@H](N)C(=O)O,,pH 7.2,37 °C,,ATP 2 mM,0.4
B4 (ABCB10),Nc1ncnc2c1ncn2[C@@H]1O[C@H](COP(=O)(O)OP(=O)(O)OP(=O)(O)O)[C@@H](O)[C@H]1O,lipid nanodiscs,pH 7.5,37 °C,,MgCl2 10 mM,750
B5 (enzyme),O=c1oc2c(O)c(O)ccc2cc1-c1nc2ccccc2s1,,pH 7.4,37 °C,,,1.4
B6 (cyc1 F332A),CC(C)=CCC/C(C)=C/CC/C(C)=C/CO[P@@](=O)(O)OP(=O)(O)O,,pH 6.5,30 °C,,MgCl2 10 mM,0.36
B7 (GTPBP3 A162P),Nc1nc2c(ncn2[C@@H]2O[C@H](COP(=O)(O)OP(=O)(O)OP(=O)(O)O)[C@@H](O)[C@H]2O)c(=O)[nH]1,,pH 8,37 °C,KCl 300 mM,,91

# Repeated from above:
Molecule,substrate,matrix,pH,temperature,notes,with,Km [µM]
B1 (Mgst1 unactivated),CC(=O)c1ccc(Cl)c([N+](=O)[O-])c1,,pH 6.5,5 °C,"potassium phosphate 0.1 M, unactivated enzyme",GSH 5 mM,77
